{"data": "Measured values pooled from the literature", "T1": "ATRX ADD domain 167-289 K251R/F284Y (Homo sapiens); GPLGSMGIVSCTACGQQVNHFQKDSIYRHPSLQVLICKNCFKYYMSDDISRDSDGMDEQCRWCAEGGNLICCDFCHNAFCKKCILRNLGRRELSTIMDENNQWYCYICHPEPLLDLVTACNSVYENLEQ", "B1": "C1s CCP2-SP domains; glycosylated; chain 1 VDCGIPESIENGKVEDPESTLFGSVIRYTCEEPYYYMENGGGGEYHCAGNGSWVNEVLGPELPKCVPVCGVPREPFEEKQR; chain 2 IIGGSDADIKNFPWQVFFDNPWAGGALINEYWVLTAAHVVEGNREPTMYVGSTSVQTSRLAKSKMLTPEHVFIHPGWKLLEVPEGRTNFDNDIALVRLKDPVKMGPTVSPICLPGTSSDYNLMDGDLGLISGWGRTEKRDRAVRLKAARLPVAPLRKCKEVKVEKPTADAEAYVFTPNMICAGGEKGMDSCKGDAGGAFAVQDPNDKTKFYAAGLVSWGPQCGTYGLYTRVKNYVDWIMKTMQENSTPRED", "B2": "BRAF 442-724 (Homo sapiens, UniProt P15056); sequence looked up; chain GRRDSSDDWEIPDGQITVGQRIGSGSFGTVYKGKWHGDVAVKMLNVTAPTPQQLQAFKNEVGVLRKTRHVNILLFMGYSTKPQLAIVTQWCEGSSLYHHLHIIETKFEMIKLIDIARQTAQGMDYLHAKSIIHRDLKSNNIFLHEDLTVKIGDFGLATVKSRWSGSHQFEQLSGSILWMAPEVIRMQDKNPYSFQSDVYAFGIVLYELMTGQLPYSNINNRDQIIFMVGRGYLSPDLSKVRSNCPKAMKRLMAECLKKKRDERPLFPQILASIELLARSLPKI", "B3": "IGFBP7 30-159 (Homo sapiens, UniProt Q16270); chain DTCGPCEPASCPPLPPLGCLLGETRDACGCCPMCARGEGEPCGGGGAGRGYCAPGMECVKSRKRRKGKAGAAAGGPGVSGVCVCKSRYPVCGSDGTTYPSGCQLRAASQRAESRGEKAITQVSKGTCEQG", "B4": "PLXNC1 1198-1305 T1264V/R1265V (Homo sapiens, UniProt O60486); chain TVALNVVFEKIPENESADVCRNISVNVLDCDTIGQAKEKIFQAFLSKNGSPYGLQLNEIGLELQMGVVQKELLDIDSSSVILEDGITKLNTIGHYEISNGSTIKVFKK", "note": "Compare with care: the assays were run in different laboratories. ± gives the spread as reported.", "UniProt P0ADI4, sequence (whole entry, looked up)": "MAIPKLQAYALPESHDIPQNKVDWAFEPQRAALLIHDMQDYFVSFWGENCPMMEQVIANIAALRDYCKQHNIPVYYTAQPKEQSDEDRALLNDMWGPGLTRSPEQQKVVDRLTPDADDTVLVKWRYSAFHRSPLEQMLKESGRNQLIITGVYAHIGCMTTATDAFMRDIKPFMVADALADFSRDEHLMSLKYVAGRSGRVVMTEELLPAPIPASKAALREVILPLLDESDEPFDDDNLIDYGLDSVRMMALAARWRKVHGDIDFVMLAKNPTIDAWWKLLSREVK", "UniProt Q9NPY3, sequence (whole entry, looked up)": "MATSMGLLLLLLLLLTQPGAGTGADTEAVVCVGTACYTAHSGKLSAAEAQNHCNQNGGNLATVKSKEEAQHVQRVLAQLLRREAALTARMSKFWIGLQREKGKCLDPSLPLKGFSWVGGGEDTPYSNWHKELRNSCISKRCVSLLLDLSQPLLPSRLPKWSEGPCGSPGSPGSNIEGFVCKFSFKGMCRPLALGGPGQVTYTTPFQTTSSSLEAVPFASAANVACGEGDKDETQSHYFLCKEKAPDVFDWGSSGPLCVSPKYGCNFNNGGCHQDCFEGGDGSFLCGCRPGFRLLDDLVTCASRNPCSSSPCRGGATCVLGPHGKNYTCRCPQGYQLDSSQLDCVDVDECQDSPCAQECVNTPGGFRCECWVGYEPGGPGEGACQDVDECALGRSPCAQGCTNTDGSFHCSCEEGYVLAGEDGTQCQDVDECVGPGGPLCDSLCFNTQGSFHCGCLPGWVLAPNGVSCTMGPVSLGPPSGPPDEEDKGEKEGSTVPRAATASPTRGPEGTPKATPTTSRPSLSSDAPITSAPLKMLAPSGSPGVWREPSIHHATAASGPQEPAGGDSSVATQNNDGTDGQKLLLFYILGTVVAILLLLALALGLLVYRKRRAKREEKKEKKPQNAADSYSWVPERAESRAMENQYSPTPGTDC", "UniProt P05155, sequence (whole entry, looked up)": "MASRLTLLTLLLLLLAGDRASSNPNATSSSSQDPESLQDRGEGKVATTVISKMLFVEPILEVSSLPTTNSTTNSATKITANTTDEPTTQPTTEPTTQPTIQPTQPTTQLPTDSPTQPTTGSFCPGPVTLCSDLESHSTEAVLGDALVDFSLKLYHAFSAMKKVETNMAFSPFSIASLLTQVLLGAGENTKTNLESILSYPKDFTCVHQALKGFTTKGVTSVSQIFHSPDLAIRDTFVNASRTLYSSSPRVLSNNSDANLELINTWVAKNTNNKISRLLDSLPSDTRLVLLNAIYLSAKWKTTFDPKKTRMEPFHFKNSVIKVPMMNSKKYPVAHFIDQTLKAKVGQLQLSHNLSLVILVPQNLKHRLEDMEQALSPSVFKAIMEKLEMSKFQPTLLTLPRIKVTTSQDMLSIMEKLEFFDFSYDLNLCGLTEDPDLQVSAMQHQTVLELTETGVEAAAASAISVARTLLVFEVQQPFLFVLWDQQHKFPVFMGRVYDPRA", "UniProt P62960, sequence (whole entry, looked up)": "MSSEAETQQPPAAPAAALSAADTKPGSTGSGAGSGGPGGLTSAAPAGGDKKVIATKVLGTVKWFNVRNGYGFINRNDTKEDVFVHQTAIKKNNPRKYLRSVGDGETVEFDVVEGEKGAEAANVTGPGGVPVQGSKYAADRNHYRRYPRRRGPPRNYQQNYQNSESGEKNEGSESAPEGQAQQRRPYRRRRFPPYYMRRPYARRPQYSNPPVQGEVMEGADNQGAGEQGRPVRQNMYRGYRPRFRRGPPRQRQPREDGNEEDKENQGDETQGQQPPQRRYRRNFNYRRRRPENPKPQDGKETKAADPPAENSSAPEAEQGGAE", "UniProt P11454, sequence (whole entry, looked up)": "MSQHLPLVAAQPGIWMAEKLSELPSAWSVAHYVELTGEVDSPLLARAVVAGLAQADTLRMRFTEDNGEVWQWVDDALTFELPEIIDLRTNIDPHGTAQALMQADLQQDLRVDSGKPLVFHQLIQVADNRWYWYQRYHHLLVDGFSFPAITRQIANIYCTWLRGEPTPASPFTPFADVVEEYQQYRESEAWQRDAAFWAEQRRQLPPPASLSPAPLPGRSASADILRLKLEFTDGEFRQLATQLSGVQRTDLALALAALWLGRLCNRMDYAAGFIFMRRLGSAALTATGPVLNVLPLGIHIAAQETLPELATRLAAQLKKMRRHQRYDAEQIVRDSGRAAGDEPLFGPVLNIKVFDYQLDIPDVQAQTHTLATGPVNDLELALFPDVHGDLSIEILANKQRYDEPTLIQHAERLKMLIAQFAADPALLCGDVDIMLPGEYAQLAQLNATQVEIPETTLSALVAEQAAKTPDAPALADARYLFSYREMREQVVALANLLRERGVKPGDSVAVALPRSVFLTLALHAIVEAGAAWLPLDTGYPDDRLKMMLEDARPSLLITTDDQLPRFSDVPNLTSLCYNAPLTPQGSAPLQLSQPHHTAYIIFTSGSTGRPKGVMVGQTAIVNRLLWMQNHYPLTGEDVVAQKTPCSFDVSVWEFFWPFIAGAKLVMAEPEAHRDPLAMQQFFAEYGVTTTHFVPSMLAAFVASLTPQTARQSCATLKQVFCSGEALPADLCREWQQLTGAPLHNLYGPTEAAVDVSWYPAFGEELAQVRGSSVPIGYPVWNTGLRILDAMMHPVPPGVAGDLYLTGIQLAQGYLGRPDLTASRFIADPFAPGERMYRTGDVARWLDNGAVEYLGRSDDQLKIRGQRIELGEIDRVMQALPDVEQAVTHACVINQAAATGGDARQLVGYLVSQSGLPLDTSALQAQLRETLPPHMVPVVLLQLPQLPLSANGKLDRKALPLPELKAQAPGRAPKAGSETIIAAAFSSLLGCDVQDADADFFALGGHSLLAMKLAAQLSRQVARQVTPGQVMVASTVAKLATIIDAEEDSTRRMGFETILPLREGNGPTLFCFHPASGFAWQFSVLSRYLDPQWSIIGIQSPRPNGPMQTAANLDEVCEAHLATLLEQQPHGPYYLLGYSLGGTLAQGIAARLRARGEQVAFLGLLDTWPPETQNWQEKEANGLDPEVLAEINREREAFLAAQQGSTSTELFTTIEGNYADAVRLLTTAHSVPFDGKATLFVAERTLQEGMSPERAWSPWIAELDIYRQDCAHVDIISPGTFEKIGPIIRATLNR", "UniProt Q92730, sequence (whole entry, looked up)": "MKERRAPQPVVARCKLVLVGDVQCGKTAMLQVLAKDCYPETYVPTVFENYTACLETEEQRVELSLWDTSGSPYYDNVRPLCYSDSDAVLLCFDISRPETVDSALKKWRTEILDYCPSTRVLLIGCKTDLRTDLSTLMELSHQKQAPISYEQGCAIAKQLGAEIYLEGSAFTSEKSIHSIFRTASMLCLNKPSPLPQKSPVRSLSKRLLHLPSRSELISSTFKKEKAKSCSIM", "UniProt P38646, sequence (whole entry, unmodified, looked up)": "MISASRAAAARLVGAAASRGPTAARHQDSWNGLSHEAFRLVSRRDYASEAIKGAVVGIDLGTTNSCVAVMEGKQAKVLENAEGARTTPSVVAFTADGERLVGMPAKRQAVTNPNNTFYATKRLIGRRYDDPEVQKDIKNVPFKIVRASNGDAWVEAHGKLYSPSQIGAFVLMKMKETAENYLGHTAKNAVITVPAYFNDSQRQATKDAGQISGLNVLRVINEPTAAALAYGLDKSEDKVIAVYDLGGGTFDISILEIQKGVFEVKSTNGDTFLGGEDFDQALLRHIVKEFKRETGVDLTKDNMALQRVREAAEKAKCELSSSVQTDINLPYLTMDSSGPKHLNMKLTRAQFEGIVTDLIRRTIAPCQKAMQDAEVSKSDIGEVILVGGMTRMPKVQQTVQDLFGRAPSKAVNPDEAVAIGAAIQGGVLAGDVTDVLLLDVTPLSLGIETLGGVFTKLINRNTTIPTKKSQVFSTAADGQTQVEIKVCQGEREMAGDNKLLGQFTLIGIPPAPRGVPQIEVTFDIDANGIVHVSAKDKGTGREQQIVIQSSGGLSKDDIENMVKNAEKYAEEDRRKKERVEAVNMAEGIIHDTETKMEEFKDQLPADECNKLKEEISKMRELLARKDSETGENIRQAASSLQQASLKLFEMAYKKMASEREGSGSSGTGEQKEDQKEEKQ"}
{"Molecule": "B1 (C1s CCP2-SP domains)", "partner": "SERPING1 111-500 (Homo sapiens, UniProt P05155)", "assay": "SPR", "setting": "added: Ca2+", "Kd [nM]": 7200}
{"Molecule": "FUS (Homo sapiens, UniProt P35637)", "partner": "TNPO1 (Homo sapiens, UniProt Q92973-2)", "assay": "fluorescence polarisation", "Kd [nM]": "43.2 ± 10.5"}
{"Molecule": "entB, ketone isostere salicyl on PCP (Escherichia coli, UniProt P0ADI4)", "partner": "EntF holo, phosphopantetheine (Escherichia coli, UniProt P11454)", "assay": "SPR", "Kd [nM]": 69}
{"Molecule": "PVKDEYEFDEDDEQDRVPPVDDKHLLKKDYRKETKSN (ANKRD11 342-378 (Homo sapiens, UniProt Q6UB99); sequence looked up)", "partner": "STAG2/RAD21 subcomplex", "assay": "ITC", "system": "peptide", "Kd [nM]": "100 ± 10"}
{"Molecule": "B2 (BRAF 442-724)", "partner": "MAP2K1 (Homo sapiens, UniProt Q02750)", "assay": "BLI", "Kd [nM]": "481 ± 37.7"}
{"Molecule": "FGB dimer (Homo sapiens)", "partner": "CDH2 EC3 217-332 (Homo sapiens)", "assay": "SPR", "setting": "Langmuir fit, added: CaCl2", "Kd [nM]": 26.4}
{"Molecule": "B3 (IGFBP7 30-159)", "partner": "CD93 25-347 (Homo sapiens, UniProt Q9NPY3)", "assay": "ITC", "setting": "25 °C", "Kd [nM]": 4260}
{"Molecule": "Ybx1 (Mus musculus, UniProt P62960)", "partner": "Purb R297Q (Mus musculus)", "assay": "ELISA", "Kd [nM]": "42.8 ± 5.7"}
{"Molecule": "B4 (PLXNC1 1198-1305 T1264V/R1265V)", "partner": "RND1 5-200 (Homo sapiens, UniProt Q92730)", "assay": "SPR", "Kd [nM]": "19800 ± 2860"}
{"Molecule": "CALLLSAPRR (GOT2 (Gallus gallus); fluorescein label)", "partner": "HSPA9 47-555 (Homo sapiens, UniProt P38646)", "assay": "FP", "system": "peptide", "Kd [nM]": 18900}
{"Molecule": "ARTKQTARKS (H3C1 1-10; R2me2a)", "partner": "T1, ATRX ADD domain 167-289 K251R/F284Y (Homo sapiens)", "assay": "ITC", "system": "peptide", "Kd [nM]": 7690}
{"note": "Excerpt of the above:"}
{"Molecule": "B4 (PLXNC1 1198-1305 T1264V/R1265V)", "partner": "RND1 5-200 (Homo sapiens, UniProt Q92730)", "assay": "SPR", "Kd [nM]": "19800 ± 2860"}
